Assay results of several laboratories.
Lines come from different studies, so protocols differ. Numbers after ± are the reported error.

| SMILES | test | system | setting | Cmax |
| --- | --- | --- | --- | --- |
| CN[C@H](CC(C)C)C(=O)N[C@H]1C(=O)N[C@@H](CC(N)=O)C(=O)N[C@H]2C(=O)N[C@H]3C(=O)N[C@H](C(=O)N[C@H](C(=O)O)c4cc(O)cc(O)c4-c4cc3ccc4O)[C@H](O)c3ccc(c(Cl)c3)Oc3cc2cc(c3O[C@@H]2O[C@H](CO)[C@@H](O)[C@H](O)[C@H]2O[C@H]2C[C@](C)(N)[C@H](O)[C@H](C)O2)Oc2ccc(cc2Cl)[C@H]1O | – | pig (Danish Landrace), plasma, free concentration | iv infusion, 1000 mg over 100 min, together with: meropenem co-administered | 35000 ng/mL |
| N[C@@H](CC(=O)N1CCn2c(nnc2C(F)(F)F)C1)Cc1cc(F)c(F)cc1F | – | healthy Korean subjects, plasma | oral, 100 mg single dose, ABCB1 G2677T/A GT | 466 ± 167 ng/mL |
| C[C@H]1CN(C(=O)CC#N)[C@]12CCN(c1ncnc3[nH]ccc13)C2 | – | atopic dermatitis patients, plasma | topical, 5 g of 3% ointment twice daily, day 1 | 3.75 ± 1.78 ng/mL |
| Cc1ccc(NC(=O)c2ccc(CN3CCN(C)CC3)cc2)cc1Nc1nccc(-c2cncc(-c3oncc3C)c2)n1 | – | Parkinson's disease patients, plasma | oral, 50.0 mg once daily, day 7, 7-day dosing, mean | 2560 ng/mL |
| Cc1ccc(Sc2ccccc2N2CCNCC2)c(C)c1 | – | healthy women, plasma | oral, 5 mg once daily, fed, day 12 | 13.5 ng/mL |
| CC(C)c1nc(CN(C)C(=O)N[C@H](C(=O)N[C@@H](Cc2ccccc2)C[C@H](O)[C@H](Cc2ccccc2)NC(=O)OCc2cncs2)C(C)C)cs1 | – | human, plasma | oral, 100 mg twice daily, day 14, together with: saquinavir 1000 mg twice daily | 1270 ng/mL |
| Nc1cc(F)ccc1NC(=O)c1ccc(CNC(=O)/C=C/c2cccnc2)cc1 | – | Japanese patients, plasma | oral, 40 mg twice weekly, cycle 1 day 25, arithmetic mean | 385 ng/mL |
| CCOc1ccc2cc(-c3nn(CC4CCN(C)CC4)c4ncnc(N)c34)ccc2c1 | LC-MS/MS | Neospora caninum-infected pregnant sheep, plasma | oral, 100 mg/kg, after dose 4 | 2700 ± 900 nM |
| CS(=O)(=O)c1ccc([C@@H](O)[C@@H](CF)NC(=O)C(Cl)Cl)cc1 | – | chicken, HY-Line Brown hens, plasma | oral, 20 mg/kg | 7350 ± 1310 ng/mL |
| Cc1cc(Nc2cc3ncccc3c(N[C@@H]3C[C@H]4CC[C@@H](C3)N4CCC#N)n2)n[nH]1 | – | pregnant rabbit, maternal plasma | oral, 60 mg/kg/day, gestation day 7 | 305 ng/mL |
| CC[C@H](C)CCCCC(=O)N[C@@H](CCN)C(=O)N[C@H](C(=O)N[C@@H](CCN)C(=O)N[C@H]1CCNC(=O)[C@H]([C@@H](C)O)NC(=O)[C@H](CCN)NC(=O)[C@H](CCN)NC(=O)[C@H](CC(C)C)NC(=O)[C@@H](Cc2ccccc2)NC(=O)[C@H](CCN)NC1=O)[C@@H](C)O | UPLC-MS/MS | intensive care patients Non-AKI, plasma | iv, dose not given, end of infusion, steady state, polymyxin B dosing | 5600 ± 1800 ng/mL |
| C[C@]12C=CC(=O)C=C1CC[C@@H]1[C@@H]2[C@@H](O)C[C@@]2(C)[C@H]1C[C@H]1O[C@@H](C3CCCCC3)O[C@]12C(=O)CO | – | children with asthma, serum | inhaled, 160 µg ciclesonide, day 7, HFA-MDI with spacer, steady state | 0.208 ± 0.012 ng/mL |
| NC(=O)c1cnc2[nH]ccc2c1N[C@@H]1[C@@H]2CC3C[C@H]1C[C@@](O)(C3)C2 | – | healthy Caucasian men, plasma | oral, 60 mg, single dose fasted | 131 ng/mL |
| Nc1nc(NC2CC2)c2ncn([C@H]3C=C[C@@H](CO)C3)c2n1 | – | HIV-infected children and adolescents, plasma | oral, 8 mg/kg | 3500 ng/mL |
| Cc1nc(-c2ccc(OCC(C)C)c(C#N)c2)sc1C(=O)O | – | healthy men, plasma | oral, 80 mg once daily, day 14, geometric mean, together with: verinurad 2.5 mg | 1720 ng/mL |
| CCOc1ccc(Cc2cc([C@@H]3S[C@H](CO)[C@@H](O)[C@H](O)[C@H]3O)c(OC)cc2C)cc1 | – | Japanese type 2 diabetes patients, plasma | oral, 5 mg single dose, eGFR 30-44 mL/min/1.73 m^2 | 211 ± 62.5 ng/mL |

Some of these lines once more:
| SMILES | test | system | setting | Cmax |
| --- | --- | --- | --- | --- |
| CS(=O)(=O)c1ccc([C@@H](O)[C@@H](CF)NC(=O)C(Cl)Cl)cc1 | – | chicken, HY-Line Brown hens, plasma | oral, 20 mg/kg | 7350 ± 1310 ng/mL |
| Cc1cc(Nc2cc3ncccc3c(N[C@@H]3C[C@H]4CC[C@@H](C3)N4CCC#N)n2)n[nH]1 | – | pregnant rabbit, maternal plasma | oral, 60 mg/kg/day, gestation day 7 | 305 ng/mL |
| CC[C@H](C)CCCCC(=O)N[C@@H](CCN)C(=O)N[C@H](C(=O)N[C@@H](CCN)C(=O)N[C@H]1CCNC(=O)[C@H]([C@@H](C)O)NC(=O)[C@H](CCN)NC(=O)[C@H](CCN)NC(=O)[C@H](CC(C)C)NC(=O)[C@@H](Cc2ccccc2)NC(=O)[C@H](CCN)NC1=O)[C@@H](C)O | UPLC-MS/MS | intensive care patients Non-AKI, plasma | iv, dose not given, end of infusion, steady state, polymyxin B dosing | 5600 ± 1800 ng/mL |
